{"data": "Experimental data from different studies", "note": "A part holds a random share of what one study measured. “And” joins repeats or separate records; there may be more than shown.", "sequence of UniProt Q96GD4 (whole entry, looked up)": "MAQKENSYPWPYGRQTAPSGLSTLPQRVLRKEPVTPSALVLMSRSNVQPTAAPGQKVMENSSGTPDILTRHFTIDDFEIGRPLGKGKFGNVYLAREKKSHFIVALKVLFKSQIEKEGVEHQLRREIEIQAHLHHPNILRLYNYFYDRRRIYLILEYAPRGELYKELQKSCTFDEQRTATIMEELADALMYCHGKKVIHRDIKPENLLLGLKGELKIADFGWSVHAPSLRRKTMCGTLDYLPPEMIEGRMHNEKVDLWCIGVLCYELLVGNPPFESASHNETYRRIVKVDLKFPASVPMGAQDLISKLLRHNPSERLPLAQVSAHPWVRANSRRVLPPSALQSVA", "sequence of UniProt O43318 (whole entry, looked up)": "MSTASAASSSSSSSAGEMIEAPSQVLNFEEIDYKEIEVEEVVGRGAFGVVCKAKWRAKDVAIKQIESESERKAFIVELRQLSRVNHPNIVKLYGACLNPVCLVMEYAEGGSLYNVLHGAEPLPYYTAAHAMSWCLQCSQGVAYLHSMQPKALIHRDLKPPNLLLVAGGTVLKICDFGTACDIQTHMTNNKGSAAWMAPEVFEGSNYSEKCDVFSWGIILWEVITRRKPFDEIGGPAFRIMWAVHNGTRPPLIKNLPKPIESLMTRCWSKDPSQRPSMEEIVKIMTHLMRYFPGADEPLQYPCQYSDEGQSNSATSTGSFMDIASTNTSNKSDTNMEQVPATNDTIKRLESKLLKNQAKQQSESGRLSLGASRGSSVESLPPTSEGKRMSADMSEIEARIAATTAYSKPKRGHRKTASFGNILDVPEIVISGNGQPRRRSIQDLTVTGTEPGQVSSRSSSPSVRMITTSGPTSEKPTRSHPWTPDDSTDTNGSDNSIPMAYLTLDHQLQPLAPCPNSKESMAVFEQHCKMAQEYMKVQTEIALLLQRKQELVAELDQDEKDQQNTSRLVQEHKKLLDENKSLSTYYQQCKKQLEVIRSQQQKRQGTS", "sequence of UniProt Q9BXA7 (whole entry, looked up)": "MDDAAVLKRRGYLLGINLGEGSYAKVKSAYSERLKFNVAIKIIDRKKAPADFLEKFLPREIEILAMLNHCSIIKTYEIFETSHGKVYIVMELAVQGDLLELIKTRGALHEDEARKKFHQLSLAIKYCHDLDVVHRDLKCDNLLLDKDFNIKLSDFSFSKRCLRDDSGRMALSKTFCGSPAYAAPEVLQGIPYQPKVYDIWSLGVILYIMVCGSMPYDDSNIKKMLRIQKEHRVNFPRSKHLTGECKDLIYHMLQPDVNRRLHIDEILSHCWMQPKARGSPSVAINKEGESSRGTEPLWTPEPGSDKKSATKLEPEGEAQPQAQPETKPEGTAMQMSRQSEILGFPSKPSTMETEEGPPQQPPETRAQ", "sequence of UniProt P16234 (whole entry, looked up)": "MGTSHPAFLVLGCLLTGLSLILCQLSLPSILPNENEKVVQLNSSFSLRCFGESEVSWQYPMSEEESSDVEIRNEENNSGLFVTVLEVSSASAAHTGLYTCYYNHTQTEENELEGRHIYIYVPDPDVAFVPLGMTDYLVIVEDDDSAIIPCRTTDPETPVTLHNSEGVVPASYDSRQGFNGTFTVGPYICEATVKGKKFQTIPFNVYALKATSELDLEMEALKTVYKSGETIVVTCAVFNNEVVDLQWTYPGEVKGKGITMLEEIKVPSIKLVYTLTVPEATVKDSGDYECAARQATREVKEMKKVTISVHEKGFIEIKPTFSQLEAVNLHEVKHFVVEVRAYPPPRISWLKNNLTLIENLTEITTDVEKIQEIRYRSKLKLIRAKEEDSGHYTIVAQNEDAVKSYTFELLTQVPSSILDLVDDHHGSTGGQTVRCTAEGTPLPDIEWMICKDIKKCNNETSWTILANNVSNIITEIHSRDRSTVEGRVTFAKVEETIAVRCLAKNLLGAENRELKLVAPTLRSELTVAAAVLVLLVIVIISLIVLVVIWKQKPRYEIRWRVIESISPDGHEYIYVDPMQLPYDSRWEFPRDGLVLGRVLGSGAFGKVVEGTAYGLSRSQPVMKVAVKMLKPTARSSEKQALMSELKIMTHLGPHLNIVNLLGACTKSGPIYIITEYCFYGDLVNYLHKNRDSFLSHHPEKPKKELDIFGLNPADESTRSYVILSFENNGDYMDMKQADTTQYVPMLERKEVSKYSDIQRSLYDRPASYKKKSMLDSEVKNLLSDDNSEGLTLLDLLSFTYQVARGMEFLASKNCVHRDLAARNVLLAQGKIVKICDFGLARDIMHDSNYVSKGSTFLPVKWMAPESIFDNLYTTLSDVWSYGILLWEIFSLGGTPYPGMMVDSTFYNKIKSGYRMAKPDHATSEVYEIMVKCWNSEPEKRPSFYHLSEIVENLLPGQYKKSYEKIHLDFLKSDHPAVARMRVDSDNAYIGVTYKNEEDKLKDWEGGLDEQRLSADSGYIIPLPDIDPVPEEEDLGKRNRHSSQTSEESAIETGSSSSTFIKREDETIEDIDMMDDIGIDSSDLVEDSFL", "sequence of UniProt P62344 (whole entry, looked up)": "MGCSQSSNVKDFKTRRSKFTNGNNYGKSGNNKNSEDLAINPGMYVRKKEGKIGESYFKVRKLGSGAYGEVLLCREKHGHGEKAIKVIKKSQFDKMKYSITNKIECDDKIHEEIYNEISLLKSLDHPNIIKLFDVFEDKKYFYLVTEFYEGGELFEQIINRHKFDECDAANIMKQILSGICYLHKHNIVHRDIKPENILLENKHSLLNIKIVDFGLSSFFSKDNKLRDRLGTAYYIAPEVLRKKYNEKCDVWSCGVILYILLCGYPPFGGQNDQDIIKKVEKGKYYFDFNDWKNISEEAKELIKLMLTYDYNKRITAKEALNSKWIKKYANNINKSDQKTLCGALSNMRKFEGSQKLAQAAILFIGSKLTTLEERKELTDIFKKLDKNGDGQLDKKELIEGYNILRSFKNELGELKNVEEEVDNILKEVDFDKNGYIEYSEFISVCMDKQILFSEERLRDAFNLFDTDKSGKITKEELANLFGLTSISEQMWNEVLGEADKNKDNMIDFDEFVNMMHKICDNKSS", "sequence of UniProt O15111 (whole entry, looked up)": "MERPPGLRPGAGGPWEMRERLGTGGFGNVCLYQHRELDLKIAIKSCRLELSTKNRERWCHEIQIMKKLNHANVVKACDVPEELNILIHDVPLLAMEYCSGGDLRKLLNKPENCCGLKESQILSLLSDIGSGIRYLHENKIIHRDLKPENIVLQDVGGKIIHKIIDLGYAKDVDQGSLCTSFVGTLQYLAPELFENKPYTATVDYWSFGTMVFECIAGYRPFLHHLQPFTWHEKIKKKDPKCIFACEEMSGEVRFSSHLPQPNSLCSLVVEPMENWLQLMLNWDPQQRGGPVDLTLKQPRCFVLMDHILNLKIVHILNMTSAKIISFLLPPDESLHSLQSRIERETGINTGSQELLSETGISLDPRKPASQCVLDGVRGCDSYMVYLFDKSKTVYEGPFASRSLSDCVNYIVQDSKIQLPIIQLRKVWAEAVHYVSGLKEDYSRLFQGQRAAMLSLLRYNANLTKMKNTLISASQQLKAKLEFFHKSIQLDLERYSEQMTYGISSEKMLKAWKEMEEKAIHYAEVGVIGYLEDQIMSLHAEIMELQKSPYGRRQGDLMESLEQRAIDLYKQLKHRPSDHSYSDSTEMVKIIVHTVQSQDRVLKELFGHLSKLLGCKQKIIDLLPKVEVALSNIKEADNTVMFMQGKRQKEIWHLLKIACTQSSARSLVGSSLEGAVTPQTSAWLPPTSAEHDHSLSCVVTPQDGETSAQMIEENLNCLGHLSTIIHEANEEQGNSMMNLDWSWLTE"}
{"data": "Block 1", "SMILES": "CCn1cnc2c(Nc3cccc(Cl)c3)nc(N[C@H]3CCCC[C@H]3N)nc21", "effect on": "enzyme activity", "action": "inhibitor", "concentration": "0.5 µM", "relative to": "control"}
{"target": "Platelet-derived growth factor receptor alpha (PDGFRA, Homo sapiens, UniProt P16234)", "remaining activity [%]": 100}
{"target": "Mitogen-activated protein kinase kinase kinase 7 (MAP3K7, Homo sapiens, UniProt O43318)", "remaining activity [%]": 98.9}
{"target": "Serine/threonine-protein kinase pim-3 (PIM3, Homo sapiens, UniProt Q86V86)", "remaining activity [%]": 34.7}
{"target": "Aurora kinase B (AURKB, Homo sapiens, UniProt Q96GD4)", "remaining activity [%]": 98.8}
{"target": "Inhibitor of nuclear factor kappa-B kinase subunit alpha (CHUK, Homo sapiens, UniProt O15111)", "remaining activity [%]": 91.7}
{"target": "Dual specificity protein kinase TTK (TTK, Homo sapiens, UniProt P33981)", "remaining activity [%]": 99.7}
{"target": "Testis-specific serine/threonine-protein kinase 1 (TSSK1B, Homo sapiens, UniProt Q9BXA7)", "remaining activity [%]": 87.4}
{"data": "Block 2", "Structure (SMILES)": "CNC(=O)c1ccc(-c2cnn3ccc(C(=O)N(C)c4ccc(Cl)c(C(=O)OC)c4)cc23)cc1", "organism": "Cryptosporidium parvum", "technique": "time-kill", "strain": "nanoluciferase-expressing", "relative to": "DMSO"}
{"concentration": "3 nM", "time": "72 h", "luminescence": "89.6% and 104%"}
{"concentration": "3 nM", "time": "8 h", "luminescence": "84.2% and 88.3%"}
{"concentration": "27 nM", "time": "72 h", "luminescence": "14.4% and 9.22%"}
{"concentration": "9 nM", "time": "8 h", "luminescence": "86.4% and 75.2%"}
{"concentration": "9 nM", "time": "24 h", "luminescence": "32.5% and 39.4%"}
{"concentration": "27 nM", "time": "8 h", "luminescence": "84.7% and 101%"}
{"concentration": "9 nM", "time": "48 h", "luminescence": "15.4% and 15.7%"}
{"concentration": "27 nM", "time": "48 h", "luminescence": "9.63% and 11.5%"}
{"data": "Block 3", "target": "Calcium/calmodulin-dependent protein kinase type II subunit alpha (CAMK2A, Homo sapiens, UniProt Q9UQM7)", "effect on": "enzyme activity", "action": "inhibitor", "concentration": "10 µM", "sequence of UniProt Q9UQM7 (whole entry, looked up)": "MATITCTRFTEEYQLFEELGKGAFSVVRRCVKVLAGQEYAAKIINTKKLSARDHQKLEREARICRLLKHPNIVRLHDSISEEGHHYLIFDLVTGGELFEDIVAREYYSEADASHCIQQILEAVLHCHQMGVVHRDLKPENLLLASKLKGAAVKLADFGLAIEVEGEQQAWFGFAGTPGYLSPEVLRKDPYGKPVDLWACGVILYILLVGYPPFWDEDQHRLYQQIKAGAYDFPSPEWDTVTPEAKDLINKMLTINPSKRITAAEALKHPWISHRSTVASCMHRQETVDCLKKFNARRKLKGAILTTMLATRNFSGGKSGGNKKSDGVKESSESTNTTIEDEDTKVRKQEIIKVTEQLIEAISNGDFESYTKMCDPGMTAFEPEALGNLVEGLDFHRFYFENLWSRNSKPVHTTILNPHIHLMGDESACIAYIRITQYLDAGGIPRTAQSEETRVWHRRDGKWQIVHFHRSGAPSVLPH"}
{"SMILES": "O=C(O)CNC(=O)c1cccnc1", "inhibition [%]": -5}
{"SMILES": "Cc1ccccc1-n1c(CF)nc2ccc(N)cc2c1=O", "inhibition [%]": -9}
{"SMILES": "COc1cc(OC)c(OC)cc1C=O", "inhibition [%]": -23}
{"SMILES": "COc1cc2c3c(c1OC)-c1ccccc1C[C@H]3NCC2", "inhibition [%]": -7}
{"data": "Further values, each from its own experiment"}
{"Compound": "CN[C@@H]1C[C@H]2O[C@@](C)([C@@H]1OC)n1c3ccccc3c3c4c(c5c6ccccc6n2c5c31)C(=O)NC4", "target or system": "normal-adjacent epithelium patient-derived organoids sample H", "test": "CellTiter-Glo", "conditions": "1 µM", "how to read": "relative to: DMSO", "quantity": "viability", "value": "0.9%"}
{"Compound": "CS(=O)(=O)N1CCCC(NC(=O)[C@H](CCC2CCCCC2)NC(=O)c2ccc(CNC(=O)c3cnc4ccccn34)cc2)C1 (stereo partly shown)", "target or system": "Calcium-dependent protein kinase 1 (CDPK1, Plasmodium falciparum, UniProt P62344)", "test": "cell-free assay, competition with immobilised ligand", "conditions": "0.1 µM", "quantity": "remaining binding", "value": "78%"}
{"Compound": "Cc1cc(NC(=O)c2cccc(S(F)(F)(F)(F)F)c2)cc(-n2ccn3nc(-c4cccnc4)cc23)c1", "target or system": "normal organoid sample D", "test": "CellTiter-Glo", "system": "human", "conditions": "1 µM, 4 days", "how to read": "relative to: DMSO", "quantity": "viability", "value": "98.2% and 98.8%"}
